Measurements collected from several papers.
Compare with care: the assays were run in different laboratories.
Target: Tyrosine-protein kinase receptor Tie-1 (TIE1, Homo sapiens, UniProt P35590)

Structure (SMILES)	observed	technique	concentration	reference	remaining binding [%]
CCN1CCN(Cc2ccc(C(=O)Nc3ccc(C)c(NCc4cnc5[nH]ccc5c4OC)c3)cc2C(F)(F)F)CC1	binding	competition with immobilised ligand	1 µM		3.6
C=CC(=O)N1CCCC(n2c(=O)c3ncccc3n(Cc3ccc(Oc4ccccc4)cc3)c2=O)C1 (centres unmarked)	cell-free assay	competition with immobilised ligand	1 µM		95
Nc1ncc2c(n1)-c1c([nH]c3ccc(C4=CCOCC4)cc13)CCC2	binding	competition with immobilised ligand	1 µM		100
CCN1CCN(Cc2ccc(NC(=O)c3ccc(C)c(NC(=O)c4cncc(-c5cccs5)c4)c3)cc2C(F)(F)F)CC1	binding	competition with immobilised ligand	1 µM		6.3
COc1c(Cl)cccc1Nc1c(-c2ccncc2C#C[C@@]2(C)CCCN2C(=O)/C=C/CN(C)C)[nH]c2c1C(=O)NCC2	cell-free assay	competition with immobilised ligand	3 µM		100
COc1cc(Nc2nccc(-c3cnn4nc(OC)ccc34)n2)cc(C(F)(F)F)c1	binding	competition with immobilised ligand	1 µM		87
CC(C)=CC1OC(C)(C)C2C=C3C(=O)C(Cl)=CC(O)C3C3C(O)C4OC4C(=O)C132 (centres unmarked)	cell-free assay	competition with immobilised ligand	10 µM		93
CNC1C[S+]2CC[S+]3CC[S+](C1)[Ru-4]321([N]=C=S)[n]2c3ccc(OC)cc3c3c4c(c5cc(F)c[n+]1c5c32)C(=O)NC4=O (centres unmarked)		KinomeScan	0.1 µM	untreated	100
COc1cc(Nc2nc(C)cc(-c3cnn4nc(OC)ccc34)n2)cc(C(F)(F)F)c1	binding	competition with immobilised ligand	1 µM		84
Cc1ccc(-c2c(/C=C(\C#N)C(=O)NC(C)C)n(CCCO)c3ncnc(N)c23)cc1	cell-free assay	competition with immobilised ligand	1 µM		100
C=CC(=O)N1CCc2ccc(-n3c(=O)ccc4cnc5ccc(-c6cnn(C)c6)cc5c43)cc21		KINOMEscan	1 µM	DMSO control	100
Cc1cnc2nc1Nc1cccc(c1)COC/C=C/COCc1cc(ccc1OCCN1CCOCC1)N2	binding	competition with immobilised ligand	0.1 µM		83
CCN1CCN(Cc2ccc(NC(=O)c3ccc(C)c(NC(=O)c4cncc(-c5cnn(C)c5)c4)c3)cc2C(F)(F)F)CC1	binding	competition with immobilised ligand	1 µM		8.4
CNC(=O)C1CCN(c2cc(C)c(F)cc2NC(=O)c2ccc(-c3cc(O)ccc3C)c(C)c2)CC1	binding	competition with immobilised ligand	1 µM		80

A few entries again:
Structure (SMILES)	observed	technique	concentration	reference	remaining binding [%]
C=CC(=O)N1CCc2ccc(-n3c(=O)ccc4cnc5ccc(-c6cnn(C)c6)cc5c43)cc21		KINOMEscan	1 µM	DMSO control	100
COc1cc(Nc2nc(C)cc(-c3cnn4nc(OC)ccc34)n2)cc(C(F)(F)F)c1	binding	competition with immobilised ligand	1 µM		84
